Measurements pooled from the literature.
Lines come from different studies, so protocols differ.

For `C=CC(=O)OC1CCC(OC(C)(C)O[C@H]2C[C@H]3OC[C@@]3(OC(C)=O)[C@H]3[C@H](OC(=O)c4ccccc4)[C@]4(O)C[C@H](OC(=O)[C@H](O)[C@@H](NC(=O)c5ccccc5)c5ccccc5)C(C)=C([C@@H](OC(C)=O)C(=O)[C@]23C)C4(C)C)CC1` (stereo partly drawn), the hydrolysis half-life was 10.2 min (phosphate buffer, 40% acetonitrile; 50 µM, pH 5.0, 37 °C).
With `CCCCCC(O)C=CC1OC2OC(C2F)C1CC=CCCCC(=O)O` (stereo not drawn) the hydrolysis half-life was 28800 min (phosphate buffer with DMSO; concentration not given, pH 7.40).
`C=CC(=O)OCCCCCCOC(C)(C)O[C@@H](C(=O)O[C@H]1C[C@@]2(O)[C@@H](OC(=O)c3ccccc3)[C@@H]3[C@]4(OC(C)=O)CO[C@@H]4C[C@H](O)[C@@]3(C)C(=O)[C@H](OC(C)=O)C(=C1C)C2(C)C)[C@@H](NC(=O)c1ccccc1)c1ccccc1` gave a hydrolysis half-life of 57.3 min (phosphate buffer, 40% acetonitrile; 50 µM, pH 5.0, 37 °C).
Under “hydrolysis rate constant ratio”, `CCOC(=O)CCC(=O)Oc1ccc(/C=C/C(=O)/C=C(O)/C=C/c2ccc(OC(=O)CCC(=O)OCC)c(OC)c2)cc1OC` is recorded as 50 (plasma; 1.5 µM; reference: rat over human).
Under “hydrolysis rate constant”, `COC(=O)C(Cc1c[nH]cn1)NC(=O)C1(C)C(O)CCC2(C)C1CCC1(C)C2CC=C2C3C(C)C(C)CCC3(C)CCC21C` (stereo not drawn) is recorded as 0.0013 min⁻¹ (Wistar rat colon homogenate; 90 µg/mL, 37 °C).
`CCC(CC)O[C@@H]1C=C(C(=O)OC(OC(=O)[C@@H](N)C(C)C)C(C)C)C[C@H](NC(=N)N)[C@H]1NC(C)=O` (single isomer, unassigned) — result for “hydrolysis rate ratio”: 15 (HepG2 cell homogenate; reference: compound over GOC-ISP-Val isomer).
`COC(=O)c1ccc(/C=N/NS(=O)(=O)c2ccc(OC)c(OC)c2)cc1` has a hydrolysis of roughly 40% (buffer; concentration not given, time not given, pH 2, 37 °C).
`CCCCCC(O)C=CC1OC2OC(C1CC=CCCCC(=O)O)C2(F)F` (stereo not drawn) has a hydrolysis half-life of 64 min (50 mM HCl/KCl buffer with DMSO; concentration not given, pH 1.25).
`C=CC(=O)OCCCOC(C)(C)OCC1OC(n2ccc(N)nc2=O)C(F)(F)C1O` (stereo not drawn) gave a hydrolysis half-life of 30.1 min (phosphate buffer, 40% acetonitrile; 50 µM, pH 5.0, 37 °C).
